Results collected from several papers.
Compare with care: the assays were run in different laboratories. Values after ≈ are worked out from the molar mass of the structure shown.
Organism: Escherichia coli

Compound | assay | system | conditions | endpoint | result
CC[C@H](C)[C@H](NC(=O)[C@H](CCCCN)NC(=O)[C@H](CCCCN)NC(=O)[C@H](CC(C)C)NC(=O)[C@H](CCCCN)NC(=O)[C@H](CCC(=O)O)NC(=O)[C@H](CCCCN)NC(=O)[C@@H](NC(=O)[C@H](CCCCN)NC(=O)[C@H](CC(N)=O)NC(=O)[C@H](CCCNC(=N)N)NC(=O)[C@H](Cc1ccccc1)NC(=O)[C@H](CCCCN)NC(=O)[C@H](CCCNC(=N)N)NC(=O)[C@H](CC(C)C)NC(=O)[C@H](CCCNC(=N)N)NC(=O)[C@H](CCCCN)NC(=O)[C@H](CCCNC(=N)N)NC(=O)[C@@H](N)CC(C)C)[C@@H](C)CC)C(=O)NCC(=O)N[C@@H](CCC(N)=O)C(=O)N[C@@H](CCCCN)C(=O)N[C@H](C(=O)N[C@@H](CCC(N)=O)C(=O)NCC(=O)N[C@@H](Cc1ccccc1)C(=O)N[C@H](C(=O)N1CCC[C@H]1C(=O)N[C@@H](CCCCN)C(=O)N[C@@H](CC(C)C)C(=O)O)C(C)C)[C@@H](C)CC | inhibition zone | TOP10 |  | lethal concentration | 1.33 µM
CC(C)=CCC/C(C)=C/CC/C(C)=C/CNCCOC1C2CC3CC(C2)CC1C3 (centres unmarked) | growth |  |  | IC50 | 0.6 µg/mL (≈ 1.5 µM)
CC[C@H](C)[C@H](NC(=O)[C@H](CCCNC(=N)N)NC(=O)[C@H](CCCCN)NC(=O)[C@H](CC(C)C)NC(=O)[C@H](CC(C)C)NC(=O)CN)C(=O)N[C@@H](CCCCN)C(=O)N[C@H](C(=O)N[C@@H](CC(C)C)C(=O)N[C@@H](CC(C)C)C(=O)NCCCC[C@H](NC(=O)[C@H](CCCCNC(=O)[C@H](CC(C)C)NC(=O)[C@H](CC(C)C)NC(=O)[C@@H](NC(=O)[C@H](CCCCN)NC(=O)[C@@H](NC(=O)[C@H](CCCNC(=N)N)NC(=O)[C@H](CCCCN)NC(=O)[C@H](CC(C)C)NC(=O)[C@H](CC(C)C)NC(=O)CN)[C@@H](C)CC)[C@@H](C)O)NC(=O)[C@H](CC(C)C)NC(=O)[C@H](CC(C)C)NC(=O)[C@@H](NC(=O)[C@H](CCCCN)NC(=O)[C@@H](NC(=O)[C@H](CCCNC(=N)N)NC(=O)[C@H](CCCCN)NC(=O)[C@H](CC(C)C)NC(=O)[C@H](CC(C)C)NC(=O)CN)[C@@H](C)CC)[C@@H](C)O)C(N)=O)[C@@H](C)O | checkerboard | ATCC 25922 | together with: rifampicin | FIC index | 0.312
O=C(O)[C@@H]1Cc2c([nH]c3ccccc23)[C@@H](c2ccc(Br)cc2Br)N1 |  | BL21(DE3) | 125 µM, 18 h | growth inhibition | 0%
CC[C@H](C)[C@H](NC(=O)[C@H](CCCNC(=N)N)NC(=O)[C@H](CCCCN)NC(=O)[C@H](CC(C)C)NC(=O)[C@H](CC(C)C)NC(=O)CN)C(=O)N[C@@H](CCCCN)C(=O)N[C@H](C(=O)N[C@@H](CC(C)C)C(=O)N[C@@H](CC(C)C)C(=O)NCCCC[C@H](NC(=O)[C@H](CC(C)C)NC(=O)[C@H](CC(C)C)NC(=O)[C@@H](NC(=O)[C@H](CCCCN)NC(=O)[C@@H](NC(=O)[C@H](CCCNC(=N)N)NC(=O)[C@H](CCCCN)NC(=O)[C@H](CC(C)C)NC(=O)[C@H](CC(C)C)NC(=O)CN)[C@@H](C)CC)[C@@H](C)O)C(N)=O)[C@@H](C)O | checkerboard | ATCC 25922 | together with: polymyxin B | FIC index | 0.125
CC[C@H](C)[C@H](NC(=O)[C@H](CCCCN)NC(=O)[C@H](CCCCN)NC(=O)[C@H](CC(C)C)NC(=O)[C@H](CCCCN)NC(=O)[C@H](CCC(=O)O)NC(=O)[C@H](CCCCN)NC(=O)[C@@H](NC(=O)[C@H](CCCCN)NC(=O)[C@H](CC(N)=O)NC(=O)[C@H](CCCNC(=N)N)NC(=O)[C@H](Cc1ccccc1)NC(=O)[C@H](CCCCN)NC(=O)[C@H](CCCNC(=N)N)NC(=O)[C@H](CC(C)C)NC(=O)[C@H](CCCNC(=N)N)NC(=O)[C@H](CCCCN)NC(=O)[C@H](CCCNC(=N)N)NC(=O)[C@H](CC(C)C)NC(=O)[C@@H](N)CCCNC(=N)N)[C@@H](C)CC)C(=O)NCC(=O)N[C@@H](CCC(N)=O)C(=O)N[C@@H](CCCCN)C(=O)N[C@H](C(=O)N[C@@H](CCC(N)=O)C(=O)NCC(=O)N[C@@H](Cc1ccccc1)C(=O)N[C@H](C(=O)N1CCC[C@H]1C(=O)N[C@@H](CCCCN)C(=O)N[C@@H](CC(C)C)C(=O)N[C@@H](CCC(N)=O)C(=O)N1CCC[C@H]1C(=O)N[C@@H](CO)C(=O)N[C@@H](CCCCN)C(=O)N[C@@H](CCC(N)=O)C(=O)N[C@@H](CO)C(=O)O)C(C)C)[C@@H](C)CC | inhibition zone | Am. J16c |  | lethal concentration | 2.89 µM
CCCCCCCCCCCCCCCC(=O)N[C@@H](CCCCN)C(=O)N[C@@H](CCCCN)C(=O)N[C@@H](CCCCN)C(=O)N[C@@H](CCCCN)C(=O)N[C@@H](Cc1c[nH]cn1)C(N)=O |  | K12 |  | MBC | 128 µg/mL
CC[C@H](C)[C@H](NC(=O)[C@H](CO)NC(=O)[C@H](CO)NC(=O)[C@H](Cc1ccccc1)NC(=O)CN)C(=O)N[C@@H](Cc1ccccc1)C(=O)N[C@@H](CCCNC(=N)N)C(=O)NCC(=O)N[C@H](C(=O)N[C@@H](C)C(=O)N[C@@H](CCCCN)C(N)=O)C(C)C |  | ATCC 8739 | 10% FBS | MBC | > 128 µM
CC[C@H](C)[C@H](NC(=O)[C@@H]1CCCN1C(=O)[C@H](CCCNC(=N)N)NC(=O)[C@@H]1CCCN1C(=O)[C@@H]1CCCN1C(=O)[C@@H](NC(=O)[C@@H]1CCCN1C(=O)[C@H](CCCNC(=N)N)NC(=O)[C@@H]1CCCN1C(=O)[C@H](CC(C)C)NC(=O)[C@H](Cc1ccc(O)cc1)NC(=O)[C@H](CO)NC(=O)CNC(=O)[C@H](CCCCN)NC(=O)[C@H](CC(=O)O)NC(=O)[C@@H](N)C(C)C)[C@@H](C)O)C(=O)N[C@@H](Cc1ccc(O)cc1)C(=O)N[C@@H](CC(N)=O)C(=O)N[C@@H](CCCNC(=N)N)C(=O)N[C@@H](CC(N)=O)C(N)=O | broth microdilution | D22 |  | MBC | 8 µg/mL
CC[C@H](C)[C@H](NC(=O)[C@H](CO)NC(=O)[C@H](CO)NC(=O)[C@H](Cc1ccccc1)NC(=O)CN)C(=O)N[C@@H](Cc1ccccc1)C(=O)N[C@@H](CCCNC(=N)N)C(N)=O |  | ATCC 8739 | together with: 4 µM FeCl3 | MBC | > 128 µM
C[C@]1(COC(=O)Cc2ccc(O)c(O)c2)[C@H](C(=O)O)N2C(=O)/C(=C/c3ccccn3)[C@H]2S1(=O)=O | broth microdilution | MG1655 expressing CTX-M-14 | 16 µg/mL, 20 h, 37 °C | MIC of ampicillin | 16 µg/mL

For quick reference, copied from above:
Compound | assay | system | conditions | endpoint | result
CC[C@H](C)[C@H](NC(=O)[C@@H]1CCCN1C(=O)[C@H](CCCNC(=N)N)NC(=O)[C@@H]1CCCN1C(=O)[C@@H]1CCCN1C(=O)[C@@H](NC(=O)[C@@H]1CCCN1C(=O)[C@H](CCCNC(=N)N)NC(=O)[C@@H]1CCCN1C(=O)[C@H](CC(C)C)NC(=O)[C@H](Cc1ccc(O)cc1)NC(=O)[C@H](CO)NC(=O)CNC(=O)[C@H](CCCCN)NC(=O)[C@H](CC(=O)O)NC(=O)[C@@H](N)C(C)C)[C@@H](C)O)C(=O)N[C@@H](Cc1ccc(O)cc1)C(=O)N[C@@H](CC(N)=O)C(=O)N[C@@H](CCCNC(=N)N)C(=O)N[C@@H](CC(N)=O)C(N)=O | broth microdilution | D22 |  | MBC | 8 µg/mL
